Measurements gathered from unrelated publications.
Every numbered part comes from another study and shows a few of its results, in no order. Positions count from the first letter of the parent shown.

Study 1
Target: UDP-N-acetylglucosamine--peptide N-acetylglucosaminyltransferase 110 kDa subunit (OGT, Homo sapiens, UniProt O15294)
Observed: binding
Method: phage display NGS
Form: peptide
Tested at: concentration not given
Notes: normalized abundance
Baseline: input library
Residues (O15294 1-1046): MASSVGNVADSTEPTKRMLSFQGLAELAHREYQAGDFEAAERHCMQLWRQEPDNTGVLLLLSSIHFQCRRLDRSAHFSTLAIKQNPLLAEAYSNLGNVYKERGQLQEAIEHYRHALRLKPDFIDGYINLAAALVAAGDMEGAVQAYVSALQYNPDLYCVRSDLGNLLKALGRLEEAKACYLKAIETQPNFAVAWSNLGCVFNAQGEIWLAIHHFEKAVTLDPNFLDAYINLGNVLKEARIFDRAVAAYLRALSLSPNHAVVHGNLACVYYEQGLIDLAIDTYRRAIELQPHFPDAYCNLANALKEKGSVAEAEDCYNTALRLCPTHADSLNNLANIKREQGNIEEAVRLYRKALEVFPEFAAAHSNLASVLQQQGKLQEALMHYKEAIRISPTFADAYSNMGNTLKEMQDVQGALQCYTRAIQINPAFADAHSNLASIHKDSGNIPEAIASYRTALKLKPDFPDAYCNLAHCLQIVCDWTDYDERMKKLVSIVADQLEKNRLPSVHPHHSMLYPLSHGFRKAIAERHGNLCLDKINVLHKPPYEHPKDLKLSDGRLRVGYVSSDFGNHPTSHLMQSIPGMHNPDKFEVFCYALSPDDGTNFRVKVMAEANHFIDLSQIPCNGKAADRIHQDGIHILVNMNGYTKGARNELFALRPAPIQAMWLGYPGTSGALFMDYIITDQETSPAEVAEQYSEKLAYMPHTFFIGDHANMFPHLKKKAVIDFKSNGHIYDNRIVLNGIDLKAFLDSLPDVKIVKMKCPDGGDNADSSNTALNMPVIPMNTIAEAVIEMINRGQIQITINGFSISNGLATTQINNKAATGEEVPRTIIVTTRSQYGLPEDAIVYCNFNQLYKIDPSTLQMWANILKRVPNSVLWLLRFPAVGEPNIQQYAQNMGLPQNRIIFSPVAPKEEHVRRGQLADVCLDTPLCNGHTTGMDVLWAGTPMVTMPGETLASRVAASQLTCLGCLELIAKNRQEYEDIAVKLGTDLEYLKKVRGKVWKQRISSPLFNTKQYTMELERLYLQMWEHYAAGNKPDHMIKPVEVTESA
Under “enrichment fold change”, `WPSVMHHHHVQQTAA` is recorded as 18.6.
For `RELNPVYMIDYTMAV`, “enrichment fold change” read 6.33.
`TYLHHGDVVDMTSHV` — result for “enrichment fold change”: 8.67.
Under “enrichment fold change”, `TWRVPHLPPRYHEEV` is recorded as 6.56.
For `GMYHHHERTWNQYQH`, “enrichment fold change” read 9.33.
`HTRWHSNRTHEQHHV` — result for “enrichment fold change”: 9.69.

Study 2
Target: RING finger protein unkempt homolog, zinc fingers 1-6, GST-SBP tag (UNK, Homo sapiens, UniProt Q9C0B0, residues 30-357)
UniProt Q9C0B0, sequence (30-357, looked up): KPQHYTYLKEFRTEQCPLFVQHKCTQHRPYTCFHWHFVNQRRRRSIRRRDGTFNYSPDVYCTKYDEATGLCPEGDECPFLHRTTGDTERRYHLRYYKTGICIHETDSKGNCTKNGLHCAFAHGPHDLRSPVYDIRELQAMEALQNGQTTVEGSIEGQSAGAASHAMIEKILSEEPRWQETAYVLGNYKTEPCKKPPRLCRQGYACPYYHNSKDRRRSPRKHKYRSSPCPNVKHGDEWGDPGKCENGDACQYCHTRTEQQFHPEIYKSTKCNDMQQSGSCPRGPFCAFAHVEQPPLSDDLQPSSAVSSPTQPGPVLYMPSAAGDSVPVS
Method: RNA Bind-n-Seq
Form: RNA
Sample: in vitro
Tested at: not given
Notes: RNA with constant flanks, human and mouse sites, ends assumed
Baseline: input RNA pool
Reading: higher = stronger binding
Shared flanks, not repeated: GGGAGUUCUACAGUCCGACGAUC … CAACAGAGGAUUGAGCAUCA
`AUUGUGUACACUGGAACAGAAUUAGCACAAAAUCGAGAACUCCCUUUGAGAAAAGAUGAUGGUGUCGAUGCUCAGAGUGGAACCAAGAAAGAAGAUCUUAAUGACAAAGAGAAGAAGGAA` has a bound/input enrichment of 0.235 ratio.
For `CCCUAAACUGCAUAAUUCUGAAGUUAUAUUUCCUAUACCAUUUCCGUAAUUCUUAUUCCAUAUUAGAAAACUUUGUUAGGCCAAAGACAAAUAGUAGGCAAGAUGGCACAGGGCAUGAAA`, the bound/input enrichment was 2.83 ratio.
`CGAGACAAAGCAUCUAGAAAUAUGAGAGGGUCACGGAUGAAUGGACUUCCAAGUCCCACUCAUAGUGCCCACUGUAGCUUCUACAGAACCAGAACCUUGCAGGCAUUAAGUAAUGAGAAG` gave a bound/input enrichment of 0.141 ratio.
The bound/input enrichment of `UCUGUAAGGAGUAAUUUUGAUCAAAAGACGUGUUACUUCCCUUUGAAGGAAAAGUUUUUAGUGUGUAUUGUACAUAAAGUCGGCUUCUCUAAAGAACCAUUGGUUUCUUCACAUCUGGGU` is reported as 0.59 ratio.
With `AGUGCCUAUGAUUACACAAUACCACCUAUGGAGAAAGCUGUUGUGAAAACGGACAUUCAGAUAGCGCUCCCUUCUGGGUGUUAUGGAAGAGUGGCUCCACGGUCAGGCUUGGCUGCAAAA` the bound/input enrichment was 0.193 ratio.
The bound/input enrichment of `GCUUUUAAUGGAGUUAUGUUUGGAGACAGGCCACUGAAAAUAAAUCACUCCAACAAUGCAAUAGUAAAACCCCCUGAGAUGACACCUCAGGCUGCAGCUAAGGAGUUAGAAGAAGUAAUG` is reported as 1.71 ratio.
With `AAAAUAAAGUUUUGUAGUGGGACCAGAAAUUACUUACCUGACAUCCACCCCCAUUCCCCCUCAUCCUGCUGGGGUUGAAAGUUCCAGACCUGCUGUCGAGGCCUUGUGUUUGUCAGACAC` the bound/input enrichment was 0.193 ratio.
With `GCAAAACCACCCAAAGGAGCACAUGUGGAAGUUUAAACUACAAAGUUAUUUCUUCAUCUUGACCUGUUUUUUUAAAUGUAAACUUUUAAGGACUUGAGAUAACUAAUUUGUUUAUAUACA` the bound/input enrichment was 0.208 ratio.

Study 3
Target: NFE2L2, bZIP domain (human)
Method: DHFR protein complementation
Sample: yeast
Notes: single substitutions, most at no-binding floor
Baseline: wild-type JUN-FOS pair
Reading: higher = stronger binding
Starting sequence: JUN, bZIP domain (human); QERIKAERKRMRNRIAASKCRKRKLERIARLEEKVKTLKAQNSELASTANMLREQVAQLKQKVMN; partner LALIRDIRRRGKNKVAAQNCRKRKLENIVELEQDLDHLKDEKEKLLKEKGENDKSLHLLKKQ
`S47I` gave a binding fitness of -1.42 natural log.
The binding fitness of `L59H` is reported as -1.45 natural log.
For `S43E`, the binding fitness was -1.33 natural log.
`K39E` has a binding fitness of -1.15 natural log.
`K39L` has a binding fitness of -1.52 natural log.
The binding fitness of `S47Y` is reported as -1.49 natural log.
For `E32L`, the binding fitness was -1.44 natural log.
The binding fitness of `A49P` is reported as -1.5 natural log.

Study 4
Target: CCND1, cyclin fold, Cln2 fusion (human)
Method: yeast growth competition, sequencing
Sample: yeast
Notes: strong parent motif
Baseline: not given
Reading: higher = stronger binding
Starting sequence: viral docking peptide; YKVKRRLVFGADD
`YKVKRRSVFGADD [L7S]`: “normalised enrichment score” 0.352.
For `YKVKRRLVNGADD [F9N]`, “normalised enrichment score” read 0.0815.
For `YKEKRRLVFGADD [V3E]`, “normalised enrichment score” read -0.185.
`YKVKRNLVFGADD [R6N]`: “normalised enrichment score” 0.438.
`YKVKRRLVTGADD [F9T]` — result for “normalised enrichment score”: 0.139.
